Measurements collected from several papers.
Protocols differ between the studies behind these lines. Numbers after ± are the reported error.

Cc1ccc(C(=O)C2Sc3nnc(-n4nc(C)cc4C)n3NC2c2ccc(Cl)cc2)cc1 (racemic)
IC50 (Z-138; cell growth or viability, imaging; 72 h): > 100 µM

CC(C)c1cccc(C(C)C)c1-n1ccn(-c2c(C(C)C)cccc2C(C)C)c1=[Se].[Cl][Ag]
IC50 (A2780 ADR; MTT; 72 h): 0.3 ± 0.05 µM

c1n[nH]cc1-c1nc2ccc3[nH]ncc3c2c2c1CCCC2
IC50 (MV4-11; cell growth or viability, resazurin; 72 h): 0.0384 µM

Cc1cc(C)c([N+]#[C][Pt-]([Cl])([Cl])=[C](Nc2ccc(CN[C](Nc3c(C(C)C)cccc3C(C)C)=[Au][Cl])cc2)Nc2c(C)cc(C)cc2C)c(C)c1
IC50 (OVCAR-3; cell growth or viability): > 100 µM

Cn1ccn(N=Cc2ccccc2SSc2ccccc2C=Nn2ccn(C)c2=S)c1=S
IC50 (breast, ovarian, colorectal cancer cells; MTT; 72 h, four cancer cell lines): < 0.4 µM

Cc1cn([C@@H]2O[C@H](CSSC[C@H]3O[C@@H](n4cc(C)c(=O)[nH]c4=O)[C@H](O)[C@@H](F)[C@@H]3O)[C@@H](O)[C@H](F)[C@H]2O)c(=O)[nH]c1=O
IC50 (L1210; cell growth or viability): > 500 µM

CCCCN(CCCC)C(=S)SC[C@@H]1C(=O)O[C@H]2[C@H]1CC/C(C)=C/CC[C@@]1(C)O[C@@H]21
IC50 (KG-1a; cell growth or viability, MTT; 72 h): 13.5 µM

CC(C)=CCc1c2c(c(O)c3c(=O)c(-c4ccc(O)cc4)coc13)C=CC(C)(C)O2
IC50 (MDA-MB-231, Huh-7, KKU100, NHDF cells; cell viability, MTT; 24 h): 13.9 to 30.9 µM

CCCC(CCC)C(=O)[O][Pt]([NH2])([NH2])([Cl])([Cl])[O]C(=O)C(C)c1ccc(CC(C)C)cc1 (stereo not shown)
IC50 (PSN1; cell growth or viability, MTT; 72 h): 0.07 µM

C/C1=C\CC[C@@]2(C)O[C@H]2[C@H]2OC(=O)[C@@H](CSC(=S)N3CCCCC3)[C@@H]2CC1
IC50 (KG-1a; cell growth or viability, MTT; 72 h): 9.1 µM

Cl.[Cl][Ru-]1[S+]=C(N2CCCC2)N[N+]1=Cc1ccc(N(c2ccccc2)c2ccccc2)cc1.c1ccccc1
IC50 (HeLa S3; cytotoxicity, MTT; 24 h): 5.3 ± 3.8 µM

C=CCc1ccc(OCc2nnc(SCC(=O)Nc3ccc(Br)cc3)o2)c(OC)c1
IC50 (MCF7, SK-OV-3, PC-3; cell growth, MTT): ≤ 10 µM

COc1ccc2nc(NC(=O)c3ccc([C@@H](N)c4ccccc4)cc3)sc2c1
IC50 (NCI-H2122; cell growth or viability): 0.029 µM

CC(C)c1cccc(C(C)C)c1N1CCN(c2c(C(C)C)cccc2C(C)C)C1=[Se].[Cl][Au]
IC50 (A2780 ADR; MTT; 72 h): 0.3 ± 0.04 µM

[N-]=[N+]=NCCc1cc(CN(Cc2ccccn2)Cc2ccccn2)c(O)c(CN(Cc2ccccn2)Cc2ccccn2)c1
IC50 (CHO-K1; cytotoxicity; 72 h): > 100 µM

COCCNc1nc(-c2nccn2C)nc2sc(-c3cccc(OC)c3Cl)c(-c3ccccc3)c12
IC50 (NCI-H1975 (KRAS wild type); Western blot, refers to: phospho-MEK, ERK1/2 and Akt; 6 h, together with: EGF 15 min): 1 to 3 µM

CC1OC(OCC2OC(Oc3cc(O)c4c(=O)cc(-c5ccc(O)c(O)c5)oc4c3)C(O)C(O)C2O)C(O)C(O)C1O (stereo not shown)
IC50 (MDA-MB-231-pcDNA breast cancer; cytotoxicity, resazurin reduction; 72 h): > 100 µM

C=C(C)[C@@H](O)COc1c2ccoc2cc2oc(=O)ccc12
IC50 (L5178Y; cell growth or viability, MTT; 72 h): 30.5 µM

CC(C)(C)N=[C](NCc1ccc(N)cc1)[AuH][Cl]
IC50 (OVCAR-3; cell growth or viability): > 100 µM

N#Cc1c(-c2cccs2)cc(-c2cccc3ccccc23)nc1Nc1ccc(Nc2nc(-c3cccc4ccccc34)cc(-c3cccs3)c2C#N)cc1
IC50 (RKOp27; cell growth or viability, MTT; 72 h): 0.077 µM

CC(C)c1cccc(C(C)C)c1-n1c(Cl)c(Cl)n(-c2c(C(C)C)cccc2C(C)C)c1=[Se].[Cl][Ag]
IC50 (A2780 ADR; MTT; 72 h): 0.2 ± 0.02 µM

COc1ccc(-c2cnc3[nH]c4ccc(/C=C/c5ccccc5)cc4c3c2)cc1
IC50 (parental Ba/F3 (IL-3 dependent); cell proliferation, [3H]-thymidine incorporation): 7 µM

CCc1ccc([C@H](C)CC(=O)N[C@@H]2O[C@H](CO)[C@@H](O)[C@H](O)[C@H]2O)cc1
IC50 (L1210; cell growth or viability; 48 h): > 250 µM

N=C(N)NCCC[C@@H]1NC(=O)[C@H](CCCCN)NC(=O)[C@@H](Cc2ccccc2)NC(=O)[C@H](CC(=O)O)NC(=O)CNC1=O
IC50 (A2780 and OVCAR-3; cell growth): 4 to 7 µM

Cc1cn([C@@H]2O[C@H](CSSc3ccccn3)[C@@H](O)[C@H](F)[C@H]2O)c(=O)[nH]c1=O
IC50 (L1210; cell growth or viability): 120 µM

FC(F)(F)c1n[nH]cc1-c1nc2ccc3[nH]ncc3c2c2c1CCC2
IC50 (Molm13 resistant FLT3-ITD D835Y; cell growth; 72 h): 0.0661 µM

CC(C)c1cccc(C(C)C)c1N=[C](NCc1ccc(N)cc1)[AuH][Cl]
IC50 (OVCAR-3; cell growth or viability): > 100 µM

COC(=O)[C@H]1[C@H]2C[C@H]3O[C@@]4(CCN3C[C@H]2C[C@@H](OC(=O)c2cc(OC)c(OC)c(OC)c2)[C@@H]1OC)C(=O)Nc1cc(OC)c(-c2ccccc2)cc14
IC50 (SU-DHL-4; cell growth or viability, trypan blue; 72 h): 31.9 µM

C=C(CC)C(=O)c1ccc(OCC(=O)NCCNC(=O)COc2ccc(C(=O)C(=C)CC)c(Cl)c2Cl)c(Cl)c1Cl
IC50 (CoC1/DDP, cisplatin-resistant; cell growth; 72 h): ~1.2 µM

Cc1c(C)n(-c2c(C(C)C)cccc2C(C)C)c(=[Se])n1-c1c(C(C)C)cccc1C(C)C.[Cl][Au]
IC50 (A2780 ADR; MTT; 72 h): 0.3 ± 0.02 µM

COc1cccc(-c2ccc(Nc3ccc(CN(C)C)cc3)c(OC)c2F)c1
IC50 (SNU1; HTRF, refers to: phospho-Akt): 14.5 µM

NC1=C(NCCCN2CCCCC2)C(=O)c2ccccc2C1=O
IC50 (HEC-1-A; cell growth or viability, MTT; 48 h): 27 µM

COc1cc(N2CCN(C)CC2)ccc1Nc1ncc2c(n1)N(C)c1ccc(C)cc1C(=O)N2CC(F)(F)F
IC50 (PaTu 8988t; cell growth or viability; 5 days, 3D culture): > 20 µM

CN(C)/C=C/C(=O)c1ccc2[nH]c3ncc(-c4ccc(N5CCN(C)CC5)cc4)cc3c2c1
IC50 (parental Ba/F3 (IL-3 dependent); cell proliferation, [3H]-thymidine incorporation): 2.8 µM

Cc1cc(C)c(-n2c3c([n+](-c4c(C)cc(C)cc4C)[c]2[Au-][Cl])-c2cccc4cccc-3c24)c(C)c1
IC50 (PSN1; cell growth or viability, MTT; 72 h): 14 µM

CCC(C(=O)O)C1CCC(C)C(C(C)C(O)C(C)C(=O)C(CC)C2OC3(C=CC(NCc4cn(CSc5ccccc5)nn4)C4(CCC(C)(C5CCC(O)(CC)C(C)O5)O4)O3)C(C)CC2C)O1 (stereo not shown)
IC50 (HMLER CD24low/CD44high; cell proliferation; 72 h): 0.03 ± 0.004 µM

CC(C)c1ccc(C[C@H](C)C(=O)NC(=O)N[C@@H]2O[C@H](CO)[C@@H](O)[C@H](O)[C@H]2O)cc1
IC50 (L1210; cell growth or viability; 48 h): > 250 µM

C(=C/c1ccccc1)/c1ccccc1
IC50 (KG-1a; cell growth or viability, ATP luminescence; 24 h): 85 µM

CC(=O)[O][Ag]=[c]1n(C)ccn1CC(O)c1ccccc1 (stereo not shown)
IC50 (MCF-10A normal mammary epithelial; cytotoxicity, MTT; 72 h): > 200 µM

O=C1C=C2CC[C@@H](NC(=O)OCc3ccccc3)CC2C(=O)C1 (stereo partly shown)
IC50 (rat Synovial cell; cell growth or viability, CCK-8; 48 h): 2.68 µM
